Published values of several laboratories.
Each numbered part is a random draw from the data of one study; scales do not carry over between parts. Several values in a cell are separate wells, animals, samples, runs or records.
Sequence of UniProt Q92918 (whole entry, looked up): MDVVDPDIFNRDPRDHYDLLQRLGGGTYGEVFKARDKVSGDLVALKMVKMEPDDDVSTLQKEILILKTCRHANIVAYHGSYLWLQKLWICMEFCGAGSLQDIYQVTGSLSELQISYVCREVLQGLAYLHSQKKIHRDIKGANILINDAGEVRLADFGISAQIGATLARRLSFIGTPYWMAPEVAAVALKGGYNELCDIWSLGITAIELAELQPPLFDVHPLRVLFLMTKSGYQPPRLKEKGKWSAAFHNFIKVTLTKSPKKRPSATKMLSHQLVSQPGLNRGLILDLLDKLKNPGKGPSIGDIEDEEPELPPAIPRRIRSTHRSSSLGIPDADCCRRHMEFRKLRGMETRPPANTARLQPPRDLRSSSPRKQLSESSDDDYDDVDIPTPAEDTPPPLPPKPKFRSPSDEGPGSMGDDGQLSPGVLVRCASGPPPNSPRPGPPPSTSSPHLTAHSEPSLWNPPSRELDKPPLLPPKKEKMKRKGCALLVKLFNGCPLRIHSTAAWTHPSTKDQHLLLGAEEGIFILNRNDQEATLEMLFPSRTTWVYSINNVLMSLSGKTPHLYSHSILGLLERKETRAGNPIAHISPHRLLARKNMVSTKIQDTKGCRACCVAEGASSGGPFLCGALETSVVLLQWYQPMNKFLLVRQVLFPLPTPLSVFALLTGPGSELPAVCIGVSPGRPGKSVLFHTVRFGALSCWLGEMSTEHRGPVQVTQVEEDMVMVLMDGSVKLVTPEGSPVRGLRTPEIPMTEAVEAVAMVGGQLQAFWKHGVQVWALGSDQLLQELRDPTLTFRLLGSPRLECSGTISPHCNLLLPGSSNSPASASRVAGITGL
Sequence of UniProt Q16288 (whole entry, looked up): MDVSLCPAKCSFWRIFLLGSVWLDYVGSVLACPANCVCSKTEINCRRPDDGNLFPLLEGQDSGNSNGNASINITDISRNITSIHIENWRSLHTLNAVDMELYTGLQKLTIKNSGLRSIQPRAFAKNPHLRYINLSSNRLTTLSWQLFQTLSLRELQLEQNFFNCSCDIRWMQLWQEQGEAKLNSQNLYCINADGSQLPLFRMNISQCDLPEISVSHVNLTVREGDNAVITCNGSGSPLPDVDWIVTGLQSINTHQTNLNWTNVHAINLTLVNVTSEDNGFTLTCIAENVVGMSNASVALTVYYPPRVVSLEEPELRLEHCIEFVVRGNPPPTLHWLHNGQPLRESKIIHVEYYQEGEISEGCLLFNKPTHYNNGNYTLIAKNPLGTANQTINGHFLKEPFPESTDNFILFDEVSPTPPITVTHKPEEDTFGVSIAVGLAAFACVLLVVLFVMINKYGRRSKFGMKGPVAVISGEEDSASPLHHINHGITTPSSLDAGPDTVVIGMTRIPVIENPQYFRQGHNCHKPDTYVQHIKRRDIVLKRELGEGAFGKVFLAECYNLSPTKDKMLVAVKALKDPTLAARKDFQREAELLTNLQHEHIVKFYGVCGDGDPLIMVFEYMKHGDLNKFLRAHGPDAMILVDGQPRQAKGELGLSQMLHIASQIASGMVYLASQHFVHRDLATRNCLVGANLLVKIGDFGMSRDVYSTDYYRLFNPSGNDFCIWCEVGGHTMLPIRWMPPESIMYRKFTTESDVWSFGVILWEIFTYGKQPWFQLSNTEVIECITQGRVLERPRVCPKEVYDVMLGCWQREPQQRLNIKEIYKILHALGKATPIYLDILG
Sequence of UniProt Q8IWQ3 (whole entry, looked up): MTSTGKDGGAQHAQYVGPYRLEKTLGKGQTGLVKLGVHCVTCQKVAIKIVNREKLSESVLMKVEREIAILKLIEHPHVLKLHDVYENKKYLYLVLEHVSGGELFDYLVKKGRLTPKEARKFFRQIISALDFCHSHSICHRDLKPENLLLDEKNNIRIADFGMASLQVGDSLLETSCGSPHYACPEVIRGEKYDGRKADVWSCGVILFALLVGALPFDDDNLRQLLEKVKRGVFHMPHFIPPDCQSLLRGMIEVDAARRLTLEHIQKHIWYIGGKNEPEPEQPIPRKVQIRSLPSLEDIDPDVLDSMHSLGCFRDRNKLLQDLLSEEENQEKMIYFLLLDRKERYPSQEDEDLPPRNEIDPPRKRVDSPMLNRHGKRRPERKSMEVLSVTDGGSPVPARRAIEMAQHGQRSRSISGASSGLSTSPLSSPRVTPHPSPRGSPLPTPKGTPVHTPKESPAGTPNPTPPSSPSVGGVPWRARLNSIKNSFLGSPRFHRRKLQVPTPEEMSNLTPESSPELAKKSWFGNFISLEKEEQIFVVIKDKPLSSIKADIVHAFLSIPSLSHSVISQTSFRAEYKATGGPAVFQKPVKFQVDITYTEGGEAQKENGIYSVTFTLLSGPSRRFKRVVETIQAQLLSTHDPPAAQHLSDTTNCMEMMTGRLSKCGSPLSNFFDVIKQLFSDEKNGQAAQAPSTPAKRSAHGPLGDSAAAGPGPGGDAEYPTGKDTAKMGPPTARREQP
Sequence of UniProt Q8IYT8 (whole entry, looked up): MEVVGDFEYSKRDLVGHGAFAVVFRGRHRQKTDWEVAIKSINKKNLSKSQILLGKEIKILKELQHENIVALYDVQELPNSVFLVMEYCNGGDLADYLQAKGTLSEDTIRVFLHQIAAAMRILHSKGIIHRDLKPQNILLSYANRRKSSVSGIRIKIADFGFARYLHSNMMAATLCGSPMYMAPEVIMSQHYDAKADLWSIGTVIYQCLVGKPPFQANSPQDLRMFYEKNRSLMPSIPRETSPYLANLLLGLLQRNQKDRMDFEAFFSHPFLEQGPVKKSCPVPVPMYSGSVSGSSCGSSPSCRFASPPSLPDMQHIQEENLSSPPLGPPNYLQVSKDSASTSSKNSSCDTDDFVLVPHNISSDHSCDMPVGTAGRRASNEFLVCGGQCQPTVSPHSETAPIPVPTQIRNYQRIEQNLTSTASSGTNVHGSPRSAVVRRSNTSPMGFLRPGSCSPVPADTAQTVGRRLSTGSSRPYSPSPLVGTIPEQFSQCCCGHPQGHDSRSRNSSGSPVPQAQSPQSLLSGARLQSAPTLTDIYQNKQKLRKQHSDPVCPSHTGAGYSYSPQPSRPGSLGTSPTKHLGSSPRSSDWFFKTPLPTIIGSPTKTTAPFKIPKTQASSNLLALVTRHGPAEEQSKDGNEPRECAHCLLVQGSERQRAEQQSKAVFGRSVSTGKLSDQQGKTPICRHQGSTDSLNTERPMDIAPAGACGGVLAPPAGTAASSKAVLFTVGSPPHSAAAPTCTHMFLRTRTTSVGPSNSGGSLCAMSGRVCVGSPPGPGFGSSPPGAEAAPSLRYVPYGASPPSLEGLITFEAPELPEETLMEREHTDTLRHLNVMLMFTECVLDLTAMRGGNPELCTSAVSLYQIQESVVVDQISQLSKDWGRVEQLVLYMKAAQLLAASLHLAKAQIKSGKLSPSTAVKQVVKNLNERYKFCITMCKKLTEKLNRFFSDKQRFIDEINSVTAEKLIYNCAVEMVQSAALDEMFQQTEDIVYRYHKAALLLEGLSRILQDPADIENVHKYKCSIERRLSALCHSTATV
Sequence of UniProt P06213 (whole entry, looked up): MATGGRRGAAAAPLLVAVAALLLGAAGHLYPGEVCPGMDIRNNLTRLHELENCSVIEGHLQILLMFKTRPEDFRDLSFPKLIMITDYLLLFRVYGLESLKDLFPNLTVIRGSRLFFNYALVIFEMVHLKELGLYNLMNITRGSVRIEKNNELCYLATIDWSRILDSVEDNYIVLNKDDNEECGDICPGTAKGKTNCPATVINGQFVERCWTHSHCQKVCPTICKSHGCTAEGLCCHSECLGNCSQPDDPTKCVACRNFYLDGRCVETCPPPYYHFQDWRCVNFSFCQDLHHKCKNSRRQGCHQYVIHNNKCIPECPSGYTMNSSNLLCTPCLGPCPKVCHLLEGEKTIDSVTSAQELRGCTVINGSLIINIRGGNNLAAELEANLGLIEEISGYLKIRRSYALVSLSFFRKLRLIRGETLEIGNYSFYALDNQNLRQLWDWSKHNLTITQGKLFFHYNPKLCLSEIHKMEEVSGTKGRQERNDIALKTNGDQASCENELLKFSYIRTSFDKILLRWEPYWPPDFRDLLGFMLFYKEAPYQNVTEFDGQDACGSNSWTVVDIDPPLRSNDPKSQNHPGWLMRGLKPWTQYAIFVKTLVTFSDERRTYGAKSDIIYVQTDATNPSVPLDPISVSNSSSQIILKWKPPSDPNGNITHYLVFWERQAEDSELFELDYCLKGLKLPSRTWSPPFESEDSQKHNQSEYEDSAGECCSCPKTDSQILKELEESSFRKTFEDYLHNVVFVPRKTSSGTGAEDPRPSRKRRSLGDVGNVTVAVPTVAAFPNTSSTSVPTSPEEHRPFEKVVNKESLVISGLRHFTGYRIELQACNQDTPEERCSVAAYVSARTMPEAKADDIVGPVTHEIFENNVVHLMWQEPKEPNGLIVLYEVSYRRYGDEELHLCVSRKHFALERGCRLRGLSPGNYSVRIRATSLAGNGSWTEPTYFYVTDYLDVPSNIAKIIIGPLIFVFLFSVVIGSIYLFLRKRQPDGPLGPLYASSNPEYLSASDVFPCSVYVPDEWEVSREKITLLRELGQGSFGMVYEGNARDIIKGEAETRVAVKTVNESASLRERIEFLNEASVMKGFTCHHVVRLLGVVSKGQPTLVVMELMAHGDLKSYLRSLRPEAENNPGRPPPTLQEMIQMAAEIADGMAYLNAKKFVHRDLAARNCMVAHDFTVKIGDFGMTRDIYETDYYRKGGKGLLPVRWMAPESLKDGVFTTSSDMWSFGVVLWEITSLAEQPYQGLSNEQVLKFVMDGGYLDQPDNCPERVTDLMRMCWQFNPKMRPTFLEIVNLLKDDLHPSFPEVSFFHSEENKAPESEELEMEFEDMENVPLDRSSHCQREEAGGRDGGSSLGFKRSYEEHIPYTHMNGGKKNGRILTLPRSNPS

Series 1 — cell line: A-375; concentration: 100 µM; time: 18 h; endpoint: viability
O=[N+]([O-])c1ccc(O)c2ncccc12: 47.4%
OCc1ccccc1: 91.1%
CCN(CC)C(=O)/C(C#N)=C/c1cc(O)c(O)c([N+](=O)[O-])c1: 85.8%
COCCc1ccc(OCC(O)CNC(C)C)cc1 (stereo not shown): 101%
CNC1(C)C2CCC(C2)C1(C)C (stereo not shown): 107%
CC(C)C[C@H](NC(=O)[C@@H](O)[C@H](N)Cc1ccccc1)C(=O)O: 93%
CC1COc2c(N3CCN(C)CC3)c(F)cc3c(=O)c(C(=O)O)cn1c23 (stereo not shown): 94.3%

Series 2 — technique: competition with immobilised ligand; concentration: 1 µM; endpoint: remaining binding
Compound: O=C(N[C@H]1CCCCC/C=C\C2C[C@@]2(C(=O)O)NC(=O)[C@@H]2C[C@@H](Oc3ccncc3)CN2C1=O)OC1CCCC1 (stereo partly shown)
Cyclin-dependent kinase 7 (CDK7, Homo sapiens, UniProt P50613); binding: 71%
Phosphatidylinositol 4-kinase beta (PI4KB, Homo sapiens, UniProt Q9UBF8); binding: 81%
Serine/threonine-protein kinase ULK2 (ULK2, Homo sapiens, UniProt Q8IYT8); binding: 100%
Dual specificity mitogen-activated protein kinase kinase 4 (MAP2K4, Homo sapiens, UniProt P45985); binding: 73%
Serine/threonine-protein kinase ULK3 (ULK3, Homo sapiens, UniProt Q6PHR2); binding: 82%
Mitogen-activated protein kinase kinase kinase 10 (MAP3K10, Homo sapiens, UniProt Q02779); binding: 100%
Serine/threonine-protein kinase Chk1 (CHEK1, Homo sapiens, UniProt O14757); binding: 79%
Serine/threonine-protein kinase BRSK2 (BRSK2, Homo sapiens, UniProt Q8IWQ3); binding: 100%
Mitogen-activated protein kinase kinase kinase kinase 1 (MAP4K1, Homo sapiens, UniProt Q92918); binding: 93%
Citron Rho-interacting kinase (CIT, Homo sapiens, UniProt O14578); binding: 89%
NT-3 growth factor receptor (NTRK3, Homo sapiens, UniProt Q16288); cell-free assay: 100%
Insulin receptor (INSR, Homo sapiens, UniProt P06213); cell-free assay: 100%
Dual serine/threonine and tyrosine protein kinase (DSTYK, Homo sapiens, UniProt Q6XUX3); binding: 100%
SRSF protein kinase 2 (SRPK2, Homo sapiens, UniProt P78362); binding: 64%

Series 3 — technique: phase 2a trial; species: idiopathic pulmonary fibrosis patients; endpoint: adverse event incidence
SMILES: CC(C)n1cnc(-c2ccc(F)cc2)c1-c1ncc(C(=O)Nc2ccc(N3CCN(C)CC3)cc2)[nH]1
refers to: allergic conjunctivitis; 60 mg once daily, grade 4: 0%
refers to: allergic conjunctivitis; 60 mg once daily, grade 3: 0%
refers to: liver injury; dose not given, grade 2, all arms pooled: 0%
refers to: weight decreased; 30 mg once daily, grade 5: 0%
refers to: proteinuria; dose not given, grade 2, all arms pooled: 0%
refers to: hydroxybutyrate dehydrogenase increased; 30 mg once daily, grade 1: 0%
refers to: arthritis; 30 mg once daily, grade 4: 0%
refers to: arthritis; 60 mg once daily, grade 5: 0%

Series 4 — cell line: mouse MPNST tumor cells; technique: high-content immunofluorescence imaging; refers to: nuclear SOX9; concentration: 10 µM; time: 12 h; notes: mean of 2 replicates; relative to: DMSO control; reading: higher = more nuclear SOX9; endpoint: nuclear SOX9 intensity
O=C(O)c1ccc(N2C(=O)C(=Cc3ccc(-c4ccc([N+](=O)[O-])cc4)o3)C=C2c2ccccc2)cc1: 97.8 % of DMSO
CN1CCC(=C2c3ccccc3C=Cc3ccccc32)CC1: 132 % of DMSO
Oc1c(CN2CCCC2)cc(COCc2ccccc2)c2cccnc12: 207 % of DMSO
NCC[C@H](O)C(=O)N[C@@H]1C[C@H](N)[C@@H](O[C@H]2O[C@H](CN)[C@@H](O)[C@H](O)[C@H]2O)[C@H](O)[C@H]1O[C@H]1O[C@H](CO)[C@@H](O)[C@H](N)[C@H]1O: 110 % of DMSO
Cc1ccc(CC2(O)CCN(CCOc3ccc(O)cc3)CC2)cc1: 146 % of DMSO
O=C(O)c1cc(-c2ccc(F)cc2F)ccc1O: 93 % of DMSO
CCNC(=O)CCC/C=C\C[C@@H]1[C@@H](/C=C/[C@@H](O)CCc2ccccc2)[C@H](O)C[C@@H]1O: 97 % of DMSO
Cc1cccc(CN2CCN(C(c3ccccc3)c3ccc(Cl)cc3)CC2)c1 (stereo not shown): 134 % of DMSO and 156 % of DMSO

Repeated from above (series 2):
Serine/threonine-protein kinase BRSK2 (BRSK2, Homo sapiens, UniProt Q8IWQ3); binding: 100%
Mitogen-activated protein kinase kinase kinase kinase 1 (MAP4K1, Homo sapiens, UniProt Q92918); binding: 93%
Citron Rho-interacting kinase (CIT, Homo sapiens, UniProt O14578); binding: 89%
